Published values collected from several papers.
Each line is one published result; not all experiments were run side by side. ± gives the spread as reported.
HDAC6 ZnF-UBD domain: Protein deacetylase HDAC6, ZnF-UBD domain (HDAC6, Homo sapiens, UniProt Q9UBN7)
SMARCA2: SWI/SNF-related matrix-associated actin-dependent regulator of chromatin subfamily A member 2 (SMARCA2, Homo sapiens, UniProt P51531)
USP13 ZnF-UBD domain: Ubiquitin carboxyl-terminal hydrolase 13, ZnF-UBD domain (USP13, Homo sapiens, UniProt Q92995)
HDAC6: Protein deacetylase HDAC6 (HDAC6, Homo sapiens, UniProt Q9UBN7)

O=C(O)CCC(=O)Nc1ccccc1  Kd (HDAC6 ZnF-UBD domain): > 1000 µM
Cc1ncsc1-c1ccc(CNC(=O)[C@@H]2C[C@@H](O)CN2C(=O)[C@@H](NC(=O)C2(F)CC2)C(C)(C)C)c(OCCOc2ccc(CN3CCN(c4cc(-c5ccccc5O)nnc4N)CC3)cc2)c1  DC50 (SMARCA2; degrader, capillary electrophoresis; SK-MEL-5; 18 h): 0.013 µM
O=C(O)Cn1cnc2ccccc2c1=O  Kd (HDAC6 ZnF-UBD domain): > 1000 µM
Cc1ncsc1-c1ccc(CNC(=O)[C@@H]2C[C@@H](O)CN2C(=O)[C@@H](NC(=O)C2(F)CC2)C(C)(C)C)c(OCCOc2ccc(CN3CCN(c4cc(-c5ccccc5O)nnc4N)CC3)cc2)c1  DC50 (SMARCA2; degrader, immunofluorescence; SW1573): 0.00529 µM
CC(C)C[C@H](NC(=O)[C@H](Cc1ccccc1)NC(=O)[C@H](Cc1ccc(O)cc1)NC(=O)CNC(=O)[C@H](CCCNC(=N)N)NC(=O)[C@H](CO)NC(=O)[C@H](CCC(N)=O)NC(=O)[C@H](CO)NC(=O)[C@H](C)NC(=O)[C@H](Cc1ccccc1)NC(=O)[C@@H]1CCCN1C(=O)[C@H](CO)NC(=O)[C@H](CCC(N)=O)NC(=O)[C@H](Cc1ccccc1)NC(=O)[C@H](CCC(=O)O)NC(=O)[C@H](CCC(=O)O)NC(=O)[C@H](CC(=O)O)NC(=O)[C@@H](NC(=O)[C@H](CCCNC(=N)N)NC(=O)[C@@H](N)Cc1ccccc1)C(C)C)C(=O)N[C@@H](Cc1ccccc1)C(=O)N[C@@H](CCCNC(=N)N)C(=O)N1CCC[C@H]1C(=O)N[C@@H](CCCNC(=N)N)C(=O)N[C@@H](CC(N)=O)C(N)=O  EC50 (Neuromedin-U receptor 2 (Mus musculus, UniProt Q8BZ39); Gq signalling, agonist, IP-1 accumulation; average of runs): 0.00057 µM
O=C(O)CCn1cnc2ccccc21  Kd (USP13 ZnF-UBD domain): > 1000 µM
CCN1/C(=C/C(C)=O)Sc2ccc(F)cc21  Kb (Alpha-2B adrenergic receptor (ADRA2B, Homo sapiens, UniProt P18089); competitive antagonist, TGFα shedding): 1.1 µM
N[C@H](CNC(=O)c1cc(Br)c(-c2ccccc2F)s1)C(=O)O  EC50 (Glutamate NMDA receptor; Grin1/Grin2c (Rattus norvegicus, UniProt P35439+Q00961, Y692L); receptor activation, positive modulator; rat; with: glutamate 300 µM): 0.123 µM
Nc1nnc(-c2ccccc2O)cc1N1CCN(Cc2ccc(N3CCN(CCOc4cccc5c4C(=O)N(C4CCC(=O)NC4=O)C5=O)CC3)c(F)c2)CC1 (stereo not shown)  DC50 (SMARCA2; degrader, immunoblot; H1792 SMARCA4 wild-type; 72 h): 0.066 µM
CC(C)C[C@H](NC(=O)[C@H](Cc1ccccc1)NC(=O)[C@@H](N)Cc1ccc(O)cc1)C(=O)N[C@@H](Cc1ccccc1)C(=O)N[C@@H](CCCNC(=N)N)C(=O)N1CCC[C@H]1C(=O)N[C@@H](CCCNC(=N)N)C(=O)N[C@@H](CC(N)=O)C(N)=O  EC50 (Neuromedin-U receptor 1 (NMUR1, Homo sapiens, UniProt Q9HB89); β-arrestin recruitment, agonist, PathHunter luminescence; CHO-K1; 90 min, 37 °C): 0.0017 µM
O=C(O)Cc1cccc2cccnc12  Kd (HDAC6 ZnF-UBD domain): > 1000 µM
O=C1Nc2c(ccc(Cl)c2Cl)C1=NO  EC50 (CALM1/Kcnn2 (Homo sapiens, UniProt P0DP23+P70604, L292A/S288A); ion current, activator, whole-cell patch clamp; S288A-L292A double mutant): > 83 µM
O=C(O)CCn1ccccc1=O  Kd (HDAC6 ZnF-UBD domain): > 1000 µM
Nc1nnc(-c2ccccc2O)cc1N1CCN(Cc2ccc(OCCOCCNc3cccc4c3C(=O)N(C3CCC(=O)NC3=O)C4=O)c(F)c2)CC1 (stereo not shown)  DC50 (SMARCA2; degrader, immunoblot; SMARCA4 wild-type cells; 96 h, median of twelve cell lines): 0.0928 µM
CN(CCCCCCNC(=O)COc1ccc(C2CCC(=O)NC2=O)cc1)Cc1cn(Cc2ccc(C(=O)NO)cc2)c2ccccc12 (stereo not shown)  DC50 (HDAC6; degrader, western blot; MM1.S cells; 24 h): 0.0045 ± 0.0004 µM
O=C(O)CCc1ccccc1  Kd (USP13 ZnF-UBD domain): > 1000 µM
CC[C@@H]1[C@H](F)C(=O)N[C@@H]1COc1nccc2cc(C(N)=O)c(OC)cc12  IC50 (Serine/threonine-protein kinase 16 (STK16, Homo sapiens, UniProt O75716); ATP-site probe binding, ActivX profiling; THP-1 cell lysate; Lys2 site): 0.91 µM
CC(=O)N[C@H]1[C@H](O[C@H]2[C@H](O)[C@@H](NC(C)=O)C(O)O[C@@H]2CO)O[C@H](CO)[C@@H](O[C@@H]2O[C@H](CO)[C@@H](O)[C@H](O)[C@H]2NC(C)=O)[C@@H]1O (stereo partly shown)  Kd (Lysozyme C (LYZ, Gallus gallus, UniProt P00698); surface sampling native MS; charge state 8+): 15.4 ± 1.8 µM
CCCCC[C@H](O)/C=C/[C@H]1[C@H](O)CC(=O)[C@@H]1C/C=C\CCCC(=O)O  EC50 (Prostaglandin E2 receptor EP1 subtype (PTGER1, Homo sapiens, UniProt P34995, W310A); IP1 accumulation, agonist; AD293; EP1 W310A mutant): 0.0619 µM
NS(=O)(=O)c1ccc(NCC(=O)O)cc1  Kd (HDAC6 ZnF-UBD domain): > 1000 µM
O=C(CNc1cccc2c1C(=O)N(C1CCC(=O)NC1=O)C2=O)NCCCCCCN1CCc2c(c3ccccc3n2Cc2ccc(C(=O)NO)cc2)C1 (stereo not shown)  DC50 (HDAC6; degrader, western blot; MM1.S cells; 24 h): 0.013 ± 0.0034 µM
Cc1ccc(NC(=O)NCc2ccc3c(c2)CN(C2CCC(=O)NC2=O)C3=O)cc1Cl (stereo not shown)  DC50 (Sal-like protein 4 (SALL4, Homo sapiens, UniProt Q9UJQ4); degrader, immunofluorescence; C33A): 0.003 ± 0.001 µM
N[C@H](CNC(=O)c1ccc(-c2ccccc2Br)s1)C(=O)O  EC50 (Glutamate NMDA receptor; Grin1/Grin2c (Rattus norvegicus, UniProt P35439+Q00961, S688A); receptor activation, positive modulator; rat; with: glutamate 300 µM): 0.0052 µM
O=C(O)CCc1nc2ncccn2n1  Kd (HDAC6 ZnF-UBD domain): > 1000 µM
Cc1ncsc1-c1ccc([C@H](C)NC(=O)[C@@H]2C[C@@H](O)CN2C(=O)[C@@H](NC(=O)CN2CCN(c3cc(-c4ccccc4O)nnc3N)CC2)C(C)(C)C)cc1  DC50 (SMARCA2; degrader, immunofluorescence; SW1573): 0.00174 µM

Excerpt of the above:
CC(C)C[C@H](NC(=O)[C@H](Cc1ccccc1)NC(=O)[C@@H](N)Cc1ccc(O)cc1)C(=O)N[C@@H](Cc1ccccc1)C(=O)N[C@@H](CCCNC(=N)N)C(=O)N1CCC[C@H]1C(=O)N[C@@H](CCCNC(=N)N)C(=O)N[C@@H](CC(N)=O)C(N)=O  EC50 (Neuromedin-U receptor 1 (NMUR1, Homo sapiens, UniProt Q9HB89); β-arrestin recruitment, agonist, PathHunter luminescence; CHO-K1; 90 min, 37 °C): 0.0017 µM
O=C(O)CCc1nc2ncccn2n1  Kd (HDAC6 ZnF-UBD domain): > 1000 µM
NS(=O)(=O)c1ccc(NCC(=O)O)cc1  Kd (HDAC6 ZnF-UBD domain): > 1000 µM
Nc1nnc(-c2ccccc2O)cc1N1CCN(Cc2ccc(OCCOCCNc3cccc4c3C(=O)N(C3CCC(=O)NC3=O)C4=O)c(F)c2)CC1 (stereo not shown)  DC50 (SMARCA2; degrader, immunoblot; SMARCA4 wild-type cells; 96 h, median of twelve cell lines): 0.0928 µM
